Results of several laboratories.
Numbered parts are unrelated; each lists some results of a single study. Positions count from the first letter of the parent shown.
Sequence of UniProt Q9UM73 (whole entry, looked up): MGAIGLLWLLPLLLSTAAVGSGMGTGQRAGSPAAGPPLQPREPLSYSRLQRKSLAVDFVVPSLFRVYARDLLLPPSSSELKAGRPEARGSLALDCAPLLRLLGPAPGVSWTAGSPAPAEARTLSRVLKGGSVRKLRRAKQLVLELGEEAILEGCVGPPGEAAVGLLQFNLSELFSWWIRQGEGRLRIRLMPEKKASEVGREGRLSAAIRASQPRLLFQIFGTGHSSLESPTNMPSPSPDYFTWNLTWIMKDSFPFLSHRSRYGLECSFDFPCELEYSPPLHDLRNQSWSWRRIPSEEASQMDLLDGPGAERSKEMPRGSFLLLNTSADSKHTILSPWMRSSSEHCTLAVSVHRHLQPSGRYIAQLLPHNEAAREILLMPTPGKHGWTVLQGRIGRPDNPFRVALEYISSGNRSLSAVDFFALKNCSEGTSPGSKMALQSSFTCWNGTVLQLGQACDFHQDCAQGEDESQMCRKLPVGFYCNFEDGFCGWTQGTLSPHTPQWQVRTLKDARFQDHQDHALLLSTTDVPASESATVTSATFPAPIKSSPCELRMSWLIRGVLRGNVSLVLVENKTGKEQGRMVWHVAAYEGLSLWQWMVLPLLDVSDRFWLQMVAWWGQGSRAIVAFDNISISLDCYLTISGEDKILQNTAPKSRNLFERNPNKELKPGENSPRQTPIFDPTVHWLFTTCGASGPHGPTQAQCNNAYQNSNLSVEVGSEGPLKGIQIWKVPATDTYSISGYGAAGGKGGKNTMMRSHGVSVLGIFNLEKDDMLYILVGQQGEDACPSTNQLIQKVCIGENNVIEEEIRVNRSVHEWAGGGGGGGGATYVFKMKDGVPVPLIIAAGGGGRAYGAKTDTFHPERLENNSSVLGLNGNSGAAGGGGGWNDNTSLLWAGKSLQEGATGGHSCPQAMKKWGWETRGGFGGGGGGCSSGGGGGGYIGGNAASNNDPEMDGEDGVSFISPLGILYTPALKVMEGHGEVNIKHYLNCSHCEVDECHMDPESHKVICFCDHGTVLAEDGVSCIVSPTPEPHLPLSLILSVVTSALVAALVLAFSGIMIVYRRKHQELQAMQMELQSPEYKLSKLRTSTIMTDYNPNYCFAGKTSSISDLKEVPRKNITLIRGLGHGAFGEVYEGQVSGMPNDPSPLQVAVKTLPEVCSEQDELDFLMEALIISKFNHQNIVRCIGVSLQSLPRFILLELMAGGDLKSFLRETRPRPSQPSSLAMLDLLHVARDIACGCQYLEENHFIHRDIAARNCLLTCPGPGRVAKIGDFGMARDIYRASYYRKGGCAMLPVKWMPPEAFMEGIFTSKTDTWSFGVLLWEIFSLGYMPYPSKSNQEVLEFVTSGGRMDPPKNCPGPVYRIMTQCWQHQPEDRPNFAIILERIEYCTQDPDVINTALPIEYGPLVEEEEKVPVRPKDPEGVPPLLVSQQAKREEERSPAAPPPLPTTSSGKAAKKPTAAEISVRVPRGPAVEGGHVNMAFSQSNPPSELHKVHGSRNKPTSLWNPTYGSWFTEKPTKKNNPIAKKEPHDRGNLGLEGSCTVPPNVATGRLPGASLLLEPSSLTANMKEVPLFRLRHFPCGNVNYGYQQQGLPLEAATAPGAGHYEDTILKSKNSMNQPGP
Sequence of UniProt O00506 (whole entry, looked up): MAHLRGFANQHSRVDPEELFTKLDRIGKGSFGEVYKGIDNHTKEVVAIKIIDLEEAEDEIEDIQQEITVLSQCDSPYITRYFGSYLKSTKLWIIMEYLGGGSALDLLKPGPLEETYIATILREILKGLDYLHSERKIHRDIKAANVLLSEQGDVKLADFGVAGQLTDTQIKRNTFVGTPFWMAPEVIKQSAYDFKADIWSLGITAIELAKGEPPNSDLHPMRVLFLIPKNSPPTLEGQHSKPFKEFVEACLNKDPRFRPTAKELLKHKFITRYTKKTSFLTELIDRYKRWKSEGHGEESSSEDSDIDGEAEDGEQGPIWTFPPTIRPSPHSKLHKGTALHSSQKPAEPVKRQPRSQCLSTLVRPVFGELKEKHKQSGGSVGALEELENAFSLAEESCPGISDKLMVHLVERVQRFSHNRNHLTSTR
Sequence of UniProt Q86Z02 (whole entry, looked up): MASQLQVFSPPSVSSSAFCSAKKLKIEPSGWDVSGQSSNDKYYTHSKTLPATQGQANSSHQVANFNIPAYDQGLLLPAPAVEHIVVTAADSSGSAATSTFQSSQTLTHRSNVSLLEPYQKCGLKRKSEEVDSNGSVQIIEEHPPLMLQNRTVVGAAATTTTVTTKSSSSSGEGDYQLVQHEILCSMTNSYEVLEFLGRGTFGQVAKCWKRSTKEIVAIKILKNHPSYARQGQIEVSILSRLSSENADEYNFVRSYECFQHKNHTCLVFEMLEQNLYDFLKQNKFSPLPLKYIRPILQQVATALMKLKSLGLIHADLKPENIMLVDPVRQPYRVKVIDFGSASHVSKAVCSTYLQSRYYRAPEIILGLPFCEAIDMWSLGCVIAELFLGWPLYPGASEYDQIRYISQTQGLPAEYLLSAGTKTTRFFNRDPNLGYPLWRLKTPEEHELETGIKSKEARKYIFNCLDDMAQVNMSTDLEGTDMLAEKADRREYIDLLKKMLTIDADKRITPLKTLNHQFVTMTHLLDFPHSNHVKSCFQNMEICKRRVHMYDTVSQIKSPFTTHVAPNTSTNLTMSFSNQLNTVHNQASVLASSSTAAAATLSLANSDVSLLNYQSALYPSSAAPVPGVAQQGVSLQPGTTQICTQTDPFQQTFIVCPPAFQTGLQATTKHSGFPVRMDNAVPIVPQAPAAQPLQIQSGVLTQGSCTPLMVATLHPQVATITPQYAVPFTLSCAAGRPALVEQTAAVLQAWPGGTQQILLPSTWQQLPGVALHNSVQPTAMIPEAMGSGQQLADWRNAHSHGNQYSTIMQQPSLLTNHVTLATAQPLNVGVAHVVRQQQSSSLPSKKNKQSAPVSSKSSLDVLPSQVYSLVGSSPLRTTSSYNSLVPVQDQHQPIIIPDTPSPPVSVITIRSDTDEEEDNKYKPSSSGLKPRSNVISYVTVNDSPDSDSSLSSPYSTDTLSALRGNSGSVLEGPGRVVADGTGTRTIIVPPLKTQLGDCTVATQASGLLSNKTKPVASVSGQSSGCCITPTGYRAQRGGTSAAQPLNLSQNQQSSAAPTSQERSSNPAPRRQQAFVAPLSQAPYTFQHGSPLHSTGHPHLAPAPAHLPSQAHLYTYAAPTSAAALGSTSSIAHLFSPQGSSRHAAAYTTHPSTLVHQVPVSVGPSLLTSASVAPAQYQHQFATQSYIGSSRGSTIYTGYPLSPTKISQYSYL
Sequence of UniProt P31749 (whole entry, looked up): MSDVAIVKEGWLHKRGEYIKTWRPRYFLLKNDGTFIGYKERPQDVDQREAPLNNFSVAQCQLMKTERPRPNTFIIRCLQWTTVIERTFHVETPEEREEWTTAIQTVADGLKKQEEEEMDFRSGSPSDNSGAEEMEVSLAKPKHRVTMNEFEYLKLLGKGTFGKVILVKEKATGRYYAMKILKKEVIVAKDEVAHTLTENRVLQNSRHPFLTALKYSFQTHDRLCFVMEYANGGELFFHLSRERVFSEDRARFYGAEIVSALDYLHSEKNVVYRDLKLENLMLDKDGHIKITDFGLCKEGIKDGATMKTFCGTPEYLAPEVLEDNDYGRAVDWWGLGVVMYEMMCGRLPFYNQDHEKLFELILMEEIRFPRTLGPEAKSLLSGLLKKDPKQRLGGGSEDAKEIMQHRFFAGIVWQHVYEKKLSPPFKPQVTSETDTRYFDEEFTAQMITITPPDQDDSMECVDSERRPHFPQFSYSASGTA
Sequence of UniProt Q00526 (whole entry, looked up): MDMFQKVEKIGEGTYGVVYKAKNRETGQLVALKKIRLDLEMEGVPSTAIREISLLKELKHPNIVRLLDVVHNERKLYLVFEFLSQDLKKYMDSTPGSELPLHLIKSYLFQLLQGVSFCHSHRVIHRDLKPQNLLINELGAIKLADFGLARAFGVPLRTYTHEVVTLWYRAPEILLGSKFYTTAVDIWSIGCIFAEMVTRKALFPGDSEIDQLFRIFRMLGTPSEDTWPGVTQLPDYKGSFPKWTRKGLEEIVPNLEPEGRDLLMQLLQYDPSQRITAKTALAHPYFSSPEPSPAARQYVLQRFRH

Set 1 — effect on: binding; technique: phage display NGS; molecule type: peptide; concentration: concentration not given; notes: panning round 2; baseline: input library; endpoint: enrichment fold change
Target: UDP-N-acetylglucosamine--peptide N-acetylglucosaminyltransferase 110 kDa subunit (OGT, Homo sapiens, UniProt O15294)
Sequence of UniProt O15294 (whole entry, looked up): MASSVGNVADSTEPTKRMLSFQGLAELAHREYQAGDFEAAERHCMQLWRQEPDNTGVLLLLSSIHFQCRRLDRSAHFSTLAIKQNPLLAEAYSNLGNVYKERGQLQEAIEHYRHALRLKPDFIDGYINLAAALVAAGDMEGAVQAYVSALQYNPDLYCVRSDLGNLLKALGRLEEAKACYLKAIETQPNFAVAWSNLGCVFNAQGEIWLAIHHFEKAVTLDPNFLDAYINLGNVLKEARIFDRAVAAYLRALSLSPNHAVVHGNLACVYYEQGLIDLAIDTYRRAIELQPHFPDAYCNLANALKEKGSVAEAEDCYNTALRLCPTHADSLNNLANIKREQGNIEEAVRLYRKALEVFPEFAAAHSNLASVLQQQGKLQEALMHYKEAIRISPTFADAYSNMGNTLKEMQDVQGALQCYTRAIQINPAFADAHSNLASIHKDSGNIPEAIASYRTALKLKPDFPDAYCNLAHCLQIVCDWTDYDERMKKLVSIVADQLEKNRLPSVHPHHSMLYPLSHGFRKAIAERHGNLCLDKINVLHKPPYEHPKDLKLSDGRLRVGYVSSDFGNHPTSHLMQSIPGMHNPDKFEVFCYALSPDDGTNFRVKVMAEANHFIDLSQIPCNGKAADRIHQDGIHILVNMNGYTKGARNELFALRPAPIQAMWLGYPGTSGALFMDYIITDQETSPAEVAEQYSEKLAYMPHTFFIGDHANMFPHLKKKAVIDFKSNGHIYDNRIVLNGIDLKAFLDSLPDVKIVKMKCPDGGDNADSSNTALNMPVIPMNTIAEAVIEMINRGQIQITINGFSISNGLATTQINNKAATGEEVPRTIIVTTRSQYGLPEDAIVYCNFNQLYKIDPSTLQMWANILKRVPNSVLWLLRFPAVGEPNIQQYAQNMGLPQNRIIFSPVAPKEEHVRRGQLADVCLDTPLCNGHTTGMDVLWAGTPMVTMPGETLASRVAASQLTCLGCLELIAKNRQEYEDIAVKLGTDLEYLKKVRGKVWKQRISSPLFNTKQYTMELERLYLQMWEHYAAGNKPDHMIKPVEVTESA
Molecule = QNQPRYFPAYQIVAQ; result = 6.25
Molecule = DWSHMRSHNHASFAH; result = 6.22
Molecule = HAMHSHDSDHMTPYR; result = 5.88
Molecule = VTTHSHNHHTMEYNV; result = 6.16
Molecule = AQFTPKYMIIPNDWL; result = 21.8
Molecule = AIYAQHPMHRTHIRI; result = 4.64
Molecule = WERHYHHWSTYTPSA; result = 5.19
Molecule = HQPWPVAQHSHVHHR; result = 5.18

Set 2 — target: CCNE1, cyclin fold, Cln2 fusion (human); technique: yeast growth competition, sequencing; matrix: yeast; notes: strong parent motif; baseline: not given; reading: higher = stronger binding; endpoint: normalised enrichment score; starting sequence: viral docking peptide; PGASRRLFGSSAD
Variant = R6A; result = 0.109
Variant = L7A; result = -0.423
Variant = R5K F8L; result = 0.265
Variant = D13A; result = 0.91
Variant = F8L; result = 0.225
Variant = F8A; result = -0.137
Variant = S11A; result = 1.56
Variant = R5A; result = 0.46

Set 3 — effect on: enzyme activity; action: inhibitor; concentration: 0.5 µM; baseline: control; endpoint: remaining activity
Compound: N/C(=N\[N+](=O)[O-])N/N=C\c1ccc(-c2cccc([N+](=O)[O-])c2)o1
target = PKN1 (Homo sapiens, UniProt Q16512); result = 93.9%
target = Insulin receptor (INSR, Homo sapiens, UniProt P06213); result = 92%
target = ALK (Homo sapiens, UniProt Q9UM73); result = 93.6%
target = FGR (Homo sapiens, UniProt P09769); result = 90.9%
target = HIPK1 (Homo sapiens, UniProt Q86Z02); result = 81.1%
target = Cyclin-dependent kinase 3, with cyclin E (CDK3, Homo sapiens, UniProt Q00526); result = 85%
target = AKT1 (Homo sapiens, UniProt P31749); result = 99.7%
target = STK25 (Homo sapiens, UniProt O00506); result = 86.3%

Other studies, line by line — concentration: 10 µM
Structure (SMILES) = Cc1c(NC(=O)c2cc(C(N)=O)nc3cc(F)ccc23)c(C(F)(F)F)nn1Cc1ccc(C(C)(C)C)cc1; target = HTR2C (Homo sapiens, UniProt P28335); effect on = binding; technique = radioligand binding; inhibition = -2.42%
Structure (SMILES) = O=C1c2ccc(Nc3ccc(F)cc3F)cc2CCc2ccc(OC[C@H](O)CO)cc21; target = HTR2A (Homo sapiens, UniProt P28223); effect on = cell-free assay; inhibition = 73.1%

Excerpt of the above (set 3):
target = HIPK1 (Homo sapiens, UniProt Q86Z02); result = 81.1%
target = Insulin receptor (INSR, Homo sapiens, UniProt P06213); result = 92%
target = AKT1 (Homo sapiens, UniProt P31749); result = 99.7%
target = Cyclin-dependent kinase 3, with cyclin E (CDK3, Homo sapiens, UniProt Q00526); result = 85%
